Results gathered from unrelated publications.
Protocols differ between the studies behind these lines. “And” joins repeats or separate records; there may be more than shown. ± marks the error that the study gave. Converted amounts (≈) assume the structure as drawn.

Cc1c(Cc2ccc(C(C)(C)C)cc2)c(=O)n2c([nH]c3ccccc32)c1C#N  IC50 (Vero; cell growth or viability): > 64 µg/mL
CC(N)C12CC3CC(CC(C3)C1)C2 (centres unmarked)  EC50 (influenza A virus; cytopathic effect, visual CPE score; MDCK, H1N1): > 200 µM
C#Cc1ccc2c(c1)C(c1ccccc1F)=NCc1c(-c3cnco3)ncn1-2  effective dose (increase in zones cleared; mouse, lactic acid-depressed nesting; relative to: vehicle): 10 mg/kg
COC[C@@H](NC(C)=O)C(=O)NCc1ccccc1  IC50 (voltage-gated sodium channel; peak sodium current, inhibitor, whole-cell patch clamp; CAD; 0 mV from -80 mV holding): 133 ± 9.8 µM
CCC[C@H](C(=O)c1ccc2c(c1)OCO2)N1CCCC1  IC50 (anti-α-PVP/MDPV polyclonal antibody (rat); binding, competitive radioimmunoassay; rat serum, 11 weeks post-immunisation; together with: tritium-labelled drug): 0.0039 ± 0.0008 µM
CC(C)c1ccc2c(c1)CC[C@H]1[C@](C)(CN)CCC[C@]21C  IC50 (WM-115; cell growth or viability, MTS; 72 h): 2.41 µM
leucinostatin B2  GI50 (MDA-MB-453; sulforhodamine B; 48 h, LAR subtype TNBC): 0.004 ± 0.0007 µM
Cc1ccc2c(c1)/C(=N/NC(=O)N/N=C1\C(=O)Nc3ccc(C)cc31)C(=O)N2  EC50 (influenza A virus; cytopathic effect, visual CPE score; MDCK, H1N1): > 20 µM
O=C1C=C(N(Cc2ccc(Cl)nc2)CC(F)F)CO1  IC50 (mAb-19F2 (BALB/c mouse monoclonal antibody); antibody binding, indirect competitive ELISA): > 1 µg/mL
Cc1c(Cc2ccc(Cl)cc2)c(=O)n2c([nH]c3ccccc32)c1C#N  IC50 (Vero; cell growth or viability): 8 µg/mL
NC12CC3CC(CC(C3)C1)C2  CD40 expression (dendritic cells; flow cytometry; 10 µg/mL, 24 h; relative to: untreated cells): increased
O=C(N/N=C1\C(=O)Nc2ccc([N+](=O)[O-])cc21)N/N=C1\C(=O)Nc2ccc([N+](=O)[O-])cc21  EC50 (influenza A virus; cytopathic effect, MTS; MDCK, H1N1): 55 ± 26 µM
Cc1noc(CC[C@@H](C)[C@H]2CC[C@H]3[C@@H]4[C@@H](O)C[C@@H]5C[C@H](O)CC[C@]5(C)[C@H]4CC[C@]23C)n1  minimum concentration for complete inhibition (Clostridioides difficile; spore germination, OD600; NAP1; 20 min, together with: 2000 µM taurocholate): 50 µM
CC(C)C1NC(=O)C(C(=O)NC(C(=O)NC2C(=O)N3C2SC(C)(C)C3C(=O)O)c2ccccc2)=C1O (centres unmarked)  MIC (Escherichia coli; broth microdilution; BW25113, Mueller-Hinton broth; together with: CCCP 50 µg/mL): 25 µg/mL (≈ 48.4 µM)
O=S(=O)(CC1CS1)c1ccc(Oc2ccccc2)cc1 (centres unmarked)  fold increase in plasma Aβ (apoE4-TR mouse; intraperitoneal, 25 mg/kg, 10 min, together with: intracranial human Aβ(1-42); relative to: vehicle): 2 fold
C=CC=C[C@@H]1CC2=CC(=O)CC[C@]2(C)[C@H]2CC[C@]3(C)[C@H](O)CC[C@H]3[C@H]12  IC50 (LNCaP; cell growth, MTT; 48 h): 16.6 µM
N#CN=C1SCCN1Cc1ccc(Cl)nc1  IC50 (mAb-19F2 (BALB/c mouse monoclonal antibody); antibody binding, indirect competitive ELISA): > 1 µg/mL
O=C1/C(=N\NC(=S)NN=Cc2ccccc2)c2ccccc2N1Cc1ccccc1  EC50 (Influenza A virus H3N2; viral replication, visual CPE score; MDCK): > 100 µM
CNC(C)Cc1ccc2c(c1)OCO2 (racemic)  subjective drug effect rating (Drug Effects Questionnaire, measured: Feel High; human; oral, 1.5 mg/kg, mean over session, unit not given; relative to: pre-dose baseline): 43.7
NNC(=O)Cn1c2ccccc2c2cn[nH]c(=O)c21  MDM2 mRNA fold change (MCF7; 5 µM, 48 h; relative to: β-actin normalised): 6.01
CCC(CC)O[C@@H]1C=C(C(=O)O)C[C@H](N)[C@H]1NC(C)=O  EC50 (influenza A virus; cytopathic effect, visual CPE score; MDCK, H1N1): 0.4 µM
C#CCN(C)[C@H](C)Cc1ccccc1  DAO immunostaining intensity (D-amino acid oxidase; APP/PS1 mouse, GFAP-positive brain areas; oral, 10 mg/kg, 4 weeks): increased
Polymyxin B  endotoxin neutralizing concentration (LAL test; human plasma; 60 min, 37 °C, 50% reduction, together with: Pseudomonas aeruginosa LPS 0.5 ng/mL): 84 ng/mL and < 100 ng/mL
COc1ccc2c(c1)[nH]c1c(C)nccc12  IC50 (hedgehog pathway; alkaline phosphatase activity, inhibitor; C3H10T1/2; 5 days, together with: Shh): 14.1 µM
C[C@H](NC(=O)Cc1cc(F)cc(F)c1)C(=O)N[C@H]1N=C(c2ccccc2)c2ccccc2N(C)C1=O  half-life of Aβ40 decline (γ-secretase; inhibitor, microdialysis; J20 hAPP transgenic mice, 24 months, hippocampal interstitial fluid; intraperitoneal, 3 mg/kg): ~2.3 h
NC12CC3CC(CC(C3)C1)C2  EC50 (Influenza A virus H3N2; viral replication, visual CPE score; MDCK): 0.9 µM
COC(=O)C1=CO[C@@H](O)[C@@H]2C(CO)=CC[C@H]12  viability (SK-N-SH; neuroprotection, MTT; 0.15 µM, 24 h, together with: 250 µM H2O2): 71.4 ± 0.5%
leucinostatin F  GI50 (MDA-MB-453; sulforhodamine B; 48 h, LAR subtype TNBC): 0.0026 ± 0.0006 µM
O=C1Nc2ccccc2/C1=N/NC(=S)N/N=C1\C(=O)Nc2ccccc21  EC50 (influenza A virus; cytopathic effect, MTS; MDCK, H1N1): 61 ± 32 µM
